Assay results pooled from the literature.
Lines come from different studies, so protocols differ. “And” joins repeats or separate records; there may be more than shown. ± gives the spread as reported.
T1: G-quadruplex DNA, parallel G-quadruplex (Homo sapiens); GGGCGGGCGCGAGGGAGGG
T2: riboswitch RNA A38C/U39C; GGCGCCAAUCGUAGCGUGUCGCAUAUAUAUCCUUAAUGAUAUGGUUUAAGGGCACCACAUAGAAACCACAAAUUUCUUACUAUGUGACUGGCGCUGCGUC

SMILES	target	test	test system	conditions	scale	endpoint	value
CC[C@H](C)[C@H](NC(C)=O)C(=O)N[C@@H](CCC(=O)O)C(=O)N[C@H](C(=O)N[C@@H](CC(=O)O)C(=O)COC(=O)c1c(C)cccc1C)[C@@H](C)O	Caspase-7 (CASP7, Homo sapiens, UniProt P55210)	enzyme activity, inhibitor				kinact/KI	26300 M⁻¹ s⁻¹
CC(C)(C(=O)N1CCC(Nc2nc3c(c(=O)[nH]2)CCCC3)CC1)c1ccc(Cl)cc1	MRGPRD (Homo sapiens, UniProt Q8TDS7, Q182A)	miniGq recruitment, agonist, BRET	HEK293T	Q182A mutant		Hill slope	0.91
Cc1ccc(C(=O)NC(C)c2cccc(-c3ccncc3)c2)cn1 (centres unmarked)	human kinase panel	binding, KINOMEscan		10000 nM, %Ctrl below 35		number of kinases hit	2
O=C1c2sc(-c3ccc(N4CCC(F)C4)nc3F)nc2CCN1c1cccnc1 (centres unmarked)	TAR DNA-binding protein 43, aggregated (TARDBP, Homo sapiens, UniProt Q13148)	radioligand binding	human, FTLD-TDP type B extract	together with: radioligand 6.91 nM		specific binding	1.43 nM and 1.38 nM
Cc1c(C(=O)N[C@H](C(=O)Nc2cccc(C(N)=O)c2)c2ccc(OCc3ccccc3)cc2)cnn1-c1ccccc1	Genome polyprotein, NS2B-NS3 protease (dengue virus type 2, UniProt P29990)	enzyme activity, fluorogenic AMC substrate		50 µM		inhibition	91%
Nc1nc2ncc(O)nc2c(=O)[nH]1	lumazine dehydrogenase, Cupriavidus sp. LA-1			pH 7.5		Km	34.1 ± 5.1 µM
C=CC[C@H]1OC(=O)CCNC(=O)[C@H](C)N(C)C(=O)[C@H]([C@@H](C)CC)N(C)C(=O)[C@H]([C@@H](C)CC)NC(=O)[C@@H]2[C@@H](C)CCN2C1=O	Platelet-derived growth factor receptor beta, extracellular domain (PDGFRB, Homo sapiens, UniProt P09619)	SPR, van't Hoff		25 °C		ΔG˚	-6.95 kcal/mol
O=C(CN1CCCCC1)Nc1ccc2[nH]c(-c3cccc(-c4nc5cc(NC(=O)CN6CCCCC6)ccc5[nH]4)n3)nc2c1	T1, G-quadruplex DNA, parallel G-quadruplex (Homo sapiens)	BLI		parallel G4, read off a plot		Kd	5.88 µM
COC(=O)Cc1cc2c(cc1C(=O)c1cccc(I)c1)OCO2	Glutamate receptor 2 (Gria2, Rattus norvegicus, UniProt P19491)	glutamate-evoked current, whole-cell patch clamp	HEK-293T	concentration not given, glutamate alone after washout, together with: glutamate		current amplitude after recovery	1270 ± 56 pA
CC(C)(C#N)c1ccc(-c2cnc(Nc3cnccn3)nc2Cl)cc1	human kinase panel	binding, KINOMEscan		10000 nM, %Ctrl below 1		number of kinases hit	0
Nc1nc2c(ncn2[C@H]2C[C@H](O)[C@@H](CO)O2)c(=O)[nH]1	T2, riboswitch RNA A38C/U39C	fluorescence		5 µM		binding	binds
N#Cc1cnc2sc(C(=O)O)cc2c1N1CCc2[nH]nc(C(=O)N[C@@H](CC(=O)NCCOCCN3CCOCC3)c3cccc(Br)c3)c2C1	Interleukin-1 receptor-like 2 (IL1RL2, Homo sapiens, UniProt Q9HB29)	reporter gene (SEAP), inhibitor, HEK-Blue IL-36R reporter	HEK-Blue IL-36R cells	11.11 µM, 6 h, together with: IL36G 0.01 ng/mL		remaining activity	33.6%
COc1ccc(C(OCCN2CCCC(C(=O)O)C2)(c2ccc(OC)cc2)c2ccc(OC)cc2)cc1 (centres unmarked)	Sodium- and chloride-dependent GABA transporter 1 (SLC6A1, Homo sapiens, UniProt P30531)	GABA transport, inhibitor, radioligand uptake	HEK293F transfected	1.28 nM, 15 min pre, 45 min uptake, room temperature, together with: [3H]-GABA 30 nM, GABA 25 µM	higher = more uptake	[3H]-GABA uptake	4040 a.u. and 1120 a.u. and 1330 a.u. and 1430 a.u. and 1490 a.u. and 1240 a.u. and 4300 a.u. and 1200 a.u.
Cc1cc(C(=O)Nc2nc3cccc(C)c3n2[C@H]2CCCCN(C(=O)/C=C/CN(C)C)C2)ccn1	CDC2-like kinase 1 (Trypanosoma brucei brucei, UniProt Q382U0)	ADP-Glo		0.01953 µM		kinase activity	91.7%

Repeated from above:
SMILES	target	test	test system	conditions	scale	endpoint	value
Cc1c(C(=O)N[C@H](C(=O)Nc2cccc(C(N)=O)c2)c2ccc(OCc3ccccc3)cc2)cnn1-c1ccccc1	Genome polyprotein, NS2B-NS3 protease (dengue virus type 2, UniProt P29990)	enzyme activity, fluorogenic AMC substrate		50 µM		inhibition	91%
